Measured values pooled from the literature.
Each numbered part is a random draw from the data of one study; scales do not carry over between parts.

Block 1
Target: RNA binding protein fox-1 homolog 2, RRM domain, GST-SBP tag (RBFOX2, Homo sapiens, UniProt O43251-10, residues 100-194)
Method: RNA Bind-n-Seq
Molecule type: RNA
Matrix: in vitro
Tested at: 365 nM
Notes: natural RNA segment, single round, ends assumed
Relative to: no-protein control
Direction: higher = stronger binding
Target sequence (chain): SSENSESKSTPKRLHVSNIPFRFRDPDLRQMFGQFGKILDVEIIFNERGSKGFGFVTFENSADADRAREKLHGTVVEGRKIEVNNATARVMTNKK
Sequence	RBNS enrichment (R)
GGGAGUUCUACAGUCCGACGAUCGGCUUUGAUUCCAUCUCCUUGUCUUUUUUCUUUGUUUUUAGAGACAGGGUCCUGCUAUUUCCCAAGCUGGAGUGCAGUGGUGCGAUCAUGGCUCACUGCAGCCUCGAACUUGGAAUUCUCGGGUGCCAA	0.224
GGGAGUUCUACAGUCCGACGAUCUAGGGUCUCCCCUUUACCCUCUCUCCUUAUUUAUUCUUGCCCCUCUGCUAUUAUUCCUUGCUGUUUAUAGUGCUUUUGUGUAGUAAAUGCUCACUCCCCAAGCUUUAUGGUGGAAUUCUCGGGUGCCAA	1.4
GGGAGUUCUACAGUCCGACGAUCUUGAGGAGGUGCUGCUGUUUGCUUUUAGGUAUGAGUGCUCAGGGGCCCUCACUGAAAGAGCCCAUGCCUGCCUUCCUCCUUUCAUCGCCUCUCUAGAGCCCCCAAAGUCAUGGAAUUCUCGGGUGCCAA	0.359
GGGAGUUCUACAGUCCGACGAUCUACUAUACUCUUGUUUGUAAGAAUAUAUUUUCCUUAUUGUUGGAGUCUCCAGAGGUUAUUGGAAGGAAUAAAAAAGGACAUGUUUUCUAACGAAACUCUCAAAUUCAUUAUGGAAUUCUCGGGUGCCAA	0.446
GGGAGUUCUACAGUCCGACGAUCUUUCCAUAUCUUUCCAUACAUCCAUUUCUGAAGUAUUCAGGAAUGUUUUCAUAAUCGAAAGAAACGGGUAUCCAAAUAAAACCAAGUUCUUGACAUUGGUCUGUUUUGCUUGGAAUUCUCGGGUGCCAA	0.317
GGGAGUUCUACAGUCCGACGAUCGUUUCUUUUGAUAUUCGUGGAGGUGAUUGUCAGUGUUUAAACAGGACUACUUUCUCCACUAUGAAGAUGACUUGGAAAUCGCAACAUCAUGGUACAUUGCUAAGUCCAUGUGGAAUUCUCGGGUGCCAA	0.309
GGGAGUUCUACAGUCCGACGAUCUGCUGUUGACCAGGUAGGCGCAAGUCUUACCAGUGUGGGUCGGGACCAACCUGUUUUCUUCCUCACUUGAAAUUGUACUUUCUGAAAUUUCAAGCAAAUUAAAAACAAUAUGGAAUUCUCGGGUGCCAA	0.501
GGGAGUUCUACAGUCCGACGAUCGGUGUGGUGGCACACGCCUGUAGUCCCAGCUACUGGGGAGGCUGAGGCAGCAUUGCUUGAACCCAGGAGGUGGAGGUUGCAGUGAGCCAAGAUCACACCACUGCACUCCAUGGAAUUCUCGGGUGCCAA	1.21

Block 2
Target: Interferon regulatory factor 3, full length, phosphomimetic (IRF3, Homo sapiens, UniProt Q14653, residues 1-427, S386D/S396D/S398D/S402D/T404D/S405D)
Method: protein-binding microarray
Molecule type: double-stranded DNA, one strand shown
Matrix: in vitro
Tested at: 2540 nM top
Notes: 60-bp whole probe
Added: salmon DNA 0.4 mg/ml
Relative to: random background probes
Direction: higher = stronger binding
Shared flanks, not repeated: GCCTAGCAC … GTCTTGATTCGCTTGACGCTGCTG
Construct (chain): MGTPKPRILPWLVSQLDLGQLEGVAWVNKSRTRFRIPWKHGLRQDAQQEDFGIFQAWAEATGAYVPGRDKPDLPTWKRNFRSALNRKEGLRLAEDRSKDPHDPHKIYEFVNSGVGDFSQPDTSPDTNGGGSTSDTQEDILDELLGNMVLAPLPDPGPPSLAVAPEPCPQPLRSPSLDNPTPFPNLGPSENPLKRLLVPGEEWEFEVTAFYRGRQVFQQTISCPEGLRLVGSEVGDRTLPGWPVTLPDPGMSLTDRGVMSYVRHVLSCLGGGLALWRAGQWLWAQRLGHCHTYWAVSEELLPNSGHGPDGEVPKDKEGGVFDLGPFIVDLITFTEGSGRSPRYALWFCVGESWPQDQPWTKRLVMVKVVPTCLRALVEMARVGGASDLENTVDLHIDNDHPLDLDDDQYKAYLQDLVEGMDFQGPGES
Sequence	fitted relative affinity
TCAAGTTTATACCTTAGACTGTGCTAG	-0.264 z-score
TCACACTCCAGTCTGGGACTGTGCTAG	0.769 z-score
GACATCCCCAGTCTCATATTGTGCTAG	0.473 z-score
TCATATATATGTGTATAACTGTGCTAG	0.625 z-score
TTAGGACTGCTACTGCTTCAGTGCTAG	-0.561 z-score
TTAGGCTTCGGGTATCGGTTAGTGCTA	0.0375 z-score
GACGATTTCAGTCCCGAGACGTGCTAG	0.855 z-score
GACGGAATCGGGTTTCGGGACGTGCTA	1.6 z-score
TTATGTATCGGGTATCGGTTAGTGCTA	2.03 z-score
GACGGTTCCTGTTTCGGGACGTGCTAG	4.47 z-score
GACGGCTTCGGTTCCGGGACGTGCTAG	1.18 z-score
ACCACTTTCCATTTCTGTTTGTGCTAG	7.53 z-score
ATATTTCCCAGAACTGGAGTGGTGCTA	1.16 z-score
TCACACATCTCACTCTAACTGTGCTAG	0.634 z-score
TCAACTCTAATCTCACTCACTGTGCTA	0.147 z-score
GACGAACTGGGGACTGCAGACGTGCTA	-0.572 z-score
TTAGATTCCAGTGTCGATTAGTGCTAG	1.41 z-score
TTAGGTTTCGGGTTCGGTTAGTGCTAG	5.46 z-score
TTAGGTATCTGACTGGGTTAGTGCTAG	0.0678 z-score

Block 3
Target: Ras GTPase-activating protein-binding protein 1, full length (G3BP1, Homo sapiens, UniProt Q13283)
UniProt Q13283, sequence (whole entry, looked up): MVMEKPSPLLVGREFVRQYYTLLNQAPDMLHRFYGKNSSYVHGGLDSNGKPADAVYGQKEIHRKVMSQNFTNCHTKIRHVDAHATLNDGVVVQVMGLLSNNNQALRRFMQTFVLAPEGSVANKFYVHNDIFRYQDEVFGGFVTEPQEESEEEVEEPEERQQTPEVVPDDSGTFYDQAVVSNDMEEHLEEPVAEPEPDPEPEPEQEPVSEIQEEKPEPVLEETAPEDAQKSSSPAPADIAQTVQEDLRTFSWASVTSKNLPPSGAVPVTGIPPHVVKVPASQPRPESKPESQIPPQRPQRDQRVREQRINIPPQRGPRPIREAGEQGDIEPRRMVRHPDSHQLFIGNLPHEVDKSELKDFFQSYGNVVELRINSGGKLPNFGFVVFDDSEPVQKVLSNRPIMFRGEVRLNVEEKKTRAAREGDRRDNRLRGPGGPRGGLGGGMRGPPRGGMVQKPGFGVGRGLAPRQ
Method: RNA Bind-n-Seq
Molecule type: RNA
Matrix: in vitro
Tested at: 200 nM
Notes: whole 134-nt RNA, ends assumed
Added: 150 mM LiCl
Relative to: input library
Direction: higher = stronger binding
Each molecule: 7-deaza-guanosine replaces G
Sequence	log2 enrichment
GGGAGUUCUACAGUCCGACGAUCAGUCCUGUGCUACACAUCGUAUGUACCGAAUCAAAUUUAAAUUUUUAAACCCCCAAAAAAGUAUUAUGUUACGCCGUUCGGAUCUGCACUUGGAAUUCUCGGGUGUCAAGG	0.597
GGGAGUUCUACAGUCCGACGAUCGUCCUGUGCUACACAUCGUAUGUACCGAAUCGGAAAAAAGGGAAAAAAGGAAAAAAGGGAAAGUAUUAUGUUACGCCGUUCGGAUCUGCAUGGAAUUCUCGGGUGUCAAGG	-0.339
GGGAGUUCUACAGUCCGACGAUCUCCUGUGCUACACAUCGUAUGUACCGAAUCGGUUUUUUUGGGUUUUUUUGGUUUUUUUGGAAAGUAUUAUGUUACGCCGUUCGGAUCUGCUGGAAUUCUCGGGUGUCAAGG	0.493
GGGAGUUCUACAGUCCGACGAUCGUCCUGUGCUACACAUCGUAUGUACCGAAUCGGGGCCCCCGGCCCCCGGGCCCCCGGGAAAGUAUUAUGUUACGCCGUUCGGAUCUGCACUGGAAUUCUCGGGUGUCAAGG	-1.83
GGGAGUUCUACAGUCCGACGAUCUUGUUUAGCAAUCAAGGAGACCGCGAAGGCGUACAUUCCCGGGUGUUGCUUCCAGGAGAAACCCUGAACGGAGAGCUCGUCCUCUUACCAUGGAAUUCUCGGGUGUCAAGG	0.208
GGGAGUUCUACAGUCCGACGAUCCACAGACAACAAACACCCACACAGACACAGAGGGAAGGGGUUGGGAUGGGGACAGGGUGCACAGCAGGGCGGGGUAGGACCCCAGCCCCUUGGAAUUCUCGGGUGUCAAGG	0.337
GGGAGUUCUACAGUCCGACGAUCAAGUCCUGUGCUACACAUCGUAUGUACCGAAUCGGGUUUUUGGGAAAAAGGGAGGGAAAGUAUUAUGUUACGCCGUUCGGAUCUGCACUUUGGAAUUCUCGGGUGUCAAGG	-0.553
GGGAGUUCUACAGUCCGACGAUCCAAGUCCUGUGCUACACAUCGUAUGUACCGAAUCGGGGCCCGGGCCCGGCCCGGGAAAGUAUUAUGUUACGCCGUUCGGAUCUGCACUUCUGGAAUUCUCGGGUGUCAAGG	-0.644

Block 4
Target: Histone acetyltransferase KAT6A, winged helix 1, GST fusion (KAT6A, Homo sapiens, UniProt Q92794, residues 1-85)
Method: protein binding microarray
Molecule type: double-stranded DNA, one strand shown
Matrix: in vitro
Tested at: not given
Notes: 8-mer, flanks averaged, mean of 2 arrays, mostly near background
Relative to: not given
Direction: higher = stronger binding
Target sequence (chain): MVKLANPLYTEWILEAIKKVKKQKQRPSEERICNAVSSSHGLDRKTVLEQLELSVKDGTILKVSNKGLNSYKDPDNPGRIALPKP
Sequence	E-score
AAATGAGT	-0.11
AGCGCCTG	0.167
ACCTTTCC	0.00063
ATGAAGTG	-0.0318
ACGGATGC	0.205
GCTTAATA	0.0117
GTTGTCTA	-0.137
AGAGTCGA	-0.197
AACAGGCT	-0.129
GTGTAAAC	-0.161
AGCAAAGG	-0.135
GCGTGCCC	0.193
ATCCCGAT	-0.164
ACCATAGA	-0.161
CACGAGTG	-0.2
ATAGAACA	-0.21
AGGACAGA	-0.235
GATCCGGC	0.18
AGAGGCTA	-0.143
GTTATTCA	-0.208
ACGTGGTC	-0.184
AGTTCAAA	-0.109
GTTCGGTA	0.0885
CTCTCAGA	-0.117
ACGAGAAA	-0.199
